Assay results pooled from the literature.

CC[C@H](C)[C@@H]([C@@H](CC(=O)N1C[C@@H](N=[N+]=[N-])C[C@H]1[C@H](OC)[C@@H](C)C(=O)N[C@@H](Cc1ccccc1)C(=O)OC)OC)N(C)C(=O)[C@@H](NC(=O)[C@@H](NC)C(C)C)[C@H](C)N=[N+]=[N-] gave a GI50 of 0.000279 µM (MOLM-13; cell growth or viability, resazurin).
C1=[N+]2CCCC[N+]3=Cc4ccc5[n]4[Au-]23[n]2c1ccc2-c1nc2ccccc2nc1-5.F[P-](F)(F)(F)(F)F has a GI50 of 11 µM (ovarian cancer cell lines; NCI60 panel mean).
With CCN1CCN(Cc2ccc(C(=O)Nc3ccc(C)c(NCc4cnc5[nH]ccc5c4OC)c3)cc2C(F)(F)F)CC1 the GI50 was 1.1 µM (SNU-449; cell growth or viability; 48 h).
The GI50 of COc1cccc2c(NCc3ccccc3)nc(Nc3cccc(F)c3)nc12 is reported as 8 µM (HCT-15; cell growth or viability; 24 h).
Cc1nc(C)c(C=[N+]([O-])C(C)(C)C)nc1C: “protein level increase” 11.3% (Western blot, refers to: HO-1; mouse, MPTP model, substantia nigra cytosol; 10 mg/kg).
CCC(=C(c1ccc(Cl)cc1)c1ccc(OCCCN(C)C)cc1)c1ccc(OC)cc1 gave a GI50 of 8.74 µM (HCC 2998; cell growth or viability, SRB).
The GI50 of COC1CN([C@H]2CC[C@H]([C@@]3(C)Oc4c(Cl)cc(C(=O)NCc5c(SC)cc(C)[nH]c5=O)c(C)c4O3)CC2)C1 is reported as greater than 1 µM (JMSU-1; cell growth or viability, ATP luminescence; 12 days).
For CC(=C(c1ccc(O)cc1)c1ccc(Cl)cc1)c1ccc(Cl)cc1, the GI50 was 0.75 µM (NCI-60 cell lines; NCI five-dose screen; median over 60 lines).
CC(=O)O[C@H]1C2=C(C(=O)C(O)=C(C(C)C)C2=O)[C@@]2(C)CCCC(C)(C)[C@@H]2[C@@H]1O has a GI50 of 8.6 µM (MCR5; cell growth or viability, MTT; 72 h).
CC[C@H](C)[C@@H]([C@@H](CC(=O)N1C[C@@H](N=[N+]=[N-])C[C@H]1[C@H](OC)[C@@H](C)C(=O)N[C@@H](Cc1ccccc1)C(=O)OC)OC)N(C)C(=O)[C@@H](NC(=O)[C@H](C(C)C)N(C)C)[C@H](C)N=[N+]=[N-] has a GI50 of 0.000365 µM (SW780; cell growth or viability, resazurin).
COc1cc(CNC(=O)C[C@H](C)CCC=C(C)C)ccc1OCc1cn(-c2cccc(C(F)(F)F)c2)nn1 has a growth percent of 72.9% (SF-295 CNS cancer cells; SRB; 10 µM, 48 h).
With Nc1nc2cc(CC[C@H]3C[C@@H](n4ccc5c(N)ncnc54)[C@H](O)[C@@H]3O)ccc2cc1Br the GI50 was 0.0019 µM (A-427; cell growth or viability, MTT; 6 days).
With CC[C@H](C)[C@@H]([C@@H](CC(=O)N1C[C@@H](N=[N+]=[N-])C[C@H]1[C@H](OC)[C@@H](C)C(=O)N[C@@H](Cc1ccccc1)C(=O)OC)OC)N(C)C(=O)[C@@H](NC(=O)[C@@H](NC)C(C)C)C(C)C the GI50 was 0.000224 µM (MOLM-13; cell growth or viability, resazurin).
FC(F)(F)c1ccc(CNc2nc(NCc3ccccc3)c3ccccc3n2)cc1 gave a GI50 of 3.4 µM (HCT-15; cell growth or viability; 24 h).
The GI50 of CC/C=C\C/C=C\C/C=C\C/C=C\C/C=C\C/C=C\CCC(=O)Nc1ccn(C2OC(CO)C(O)C2(F)F)c(=O)n1 (centres unmarked) is reported as 10.6 µM (HCC 2998; cell growth or viability, SRB).
With COc1cc(CNC(=O)C[C@H](C)CCC=C(C)C)ccc1OCc1cn(-c2ccccc2Cl)nn1 the growth percent was 83.6% (OVCAR-3 ovarian cancer cells; SRB; 10 µM, 48 h).
CC(Cc1ccc(Cl)cc1)=C(c1ccc(Cl)cc1)c1ccc(OCCN(C)C)cc1 has a GI50 of 3.92 µM (NCI-60 cell lines; NCI five-dose screen; mean over 60 lines).

Repeated from above:
COc1cc(CNC(=O)C[C@H](C)CCC=C(C)C)ccc1OCc1cn(-c2cccc(C(F)(F)F)c2)nn1 has a growth percent of 72.9% (SF-295 CNS cancer cells; SRB; 10 µM, 48 h).
The GI50 of COC1CN([C@H]2CC[C@H]([C@@]3(C)Oc4c(Cl)cc(C(=O)NCc5c(SC)cc(C)[nH]c5=O)c(C)c4O3)CC2)C1 is reported as greater than 1 µM (JMSU-1; cell growth or viability, ATP luminescence; 12 days).
